Experimental data of several laboratories.
Numbered parts are unrelated; each lists some results of a single study.
Sequence of UniProt P10721 (whole entry, unmodified, looked up): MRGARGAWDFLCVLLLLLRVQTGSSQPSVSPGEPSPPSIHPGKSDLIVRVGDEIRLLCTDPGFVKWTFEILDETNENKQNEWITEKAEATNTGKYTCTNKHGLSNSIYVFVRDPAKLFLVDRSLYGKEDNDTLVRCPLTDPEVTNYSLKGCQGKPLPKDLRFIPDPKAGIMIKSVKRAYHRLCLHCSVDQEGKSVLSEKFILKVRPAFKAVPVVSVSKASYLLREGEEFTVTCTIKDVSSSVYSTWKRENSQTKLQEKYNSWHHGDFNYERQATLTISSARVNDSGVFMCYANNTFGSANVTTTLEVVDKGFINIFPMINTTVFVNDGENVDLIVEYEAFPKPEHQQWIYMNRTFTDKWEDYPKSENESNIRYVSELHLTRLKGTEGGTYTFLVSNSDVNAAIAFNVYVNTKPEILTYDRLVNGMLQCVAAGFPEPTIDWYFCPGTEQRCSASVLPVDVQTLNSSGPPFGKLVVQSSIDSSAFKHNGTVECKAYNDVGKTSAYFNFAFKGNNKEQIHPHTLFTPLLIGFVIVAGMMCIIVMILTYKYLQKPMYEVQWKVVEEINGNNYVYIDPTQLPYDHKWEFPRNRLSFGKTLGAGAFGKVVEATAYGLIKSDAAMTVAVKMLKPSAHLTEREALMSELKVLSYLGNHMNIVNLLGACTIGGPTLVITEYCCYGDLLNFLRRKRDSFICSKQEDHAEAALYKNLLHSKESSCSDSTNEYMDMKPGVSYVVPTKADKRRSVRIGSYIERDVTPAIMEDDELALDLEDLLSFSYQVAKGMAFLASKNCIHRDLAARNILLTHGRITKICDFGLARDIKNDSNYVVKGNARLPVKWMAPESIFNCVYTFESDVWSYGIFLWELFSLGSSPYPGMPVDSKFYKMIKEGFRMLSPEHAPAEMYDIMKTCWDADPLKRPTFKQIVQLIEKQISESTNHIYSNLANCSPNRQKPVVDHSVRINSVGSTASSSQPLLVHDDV
Sequence of UniProt Q13976 (whole entry, looked up): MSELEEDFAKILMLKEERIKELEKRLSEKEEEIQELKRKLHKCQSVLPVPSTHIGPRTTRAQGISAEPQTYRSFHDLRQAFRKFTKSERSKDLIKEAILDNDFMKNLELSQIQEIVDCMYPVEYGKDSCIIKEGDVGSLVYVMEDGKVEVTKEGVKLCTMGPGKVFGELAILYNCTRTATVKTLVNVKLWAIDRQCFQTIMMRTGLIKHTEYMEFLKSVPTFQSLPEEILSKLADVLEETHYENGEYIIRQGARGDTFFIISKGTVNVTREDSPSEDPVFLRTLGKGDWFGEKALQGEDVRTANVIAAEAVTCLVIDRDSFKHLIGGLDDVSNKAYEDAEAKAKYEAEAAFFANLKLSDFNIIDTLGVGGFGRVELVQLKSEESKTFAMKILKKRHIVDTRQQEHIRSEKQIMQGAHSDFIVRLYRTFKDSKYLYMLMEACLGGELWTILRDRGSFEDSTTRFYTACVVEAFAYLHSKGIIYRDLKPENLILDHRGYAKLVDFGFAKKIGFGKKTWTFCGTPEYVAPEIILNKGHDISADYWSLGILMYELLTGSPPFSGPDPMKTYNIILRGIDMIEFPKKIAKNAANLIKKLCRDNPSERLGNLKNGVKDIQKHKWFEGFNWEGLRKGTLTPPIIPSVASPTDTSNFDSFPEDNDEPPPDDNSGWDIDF
Sequence of UniProt Q9NRM7 (whole entry, looked up): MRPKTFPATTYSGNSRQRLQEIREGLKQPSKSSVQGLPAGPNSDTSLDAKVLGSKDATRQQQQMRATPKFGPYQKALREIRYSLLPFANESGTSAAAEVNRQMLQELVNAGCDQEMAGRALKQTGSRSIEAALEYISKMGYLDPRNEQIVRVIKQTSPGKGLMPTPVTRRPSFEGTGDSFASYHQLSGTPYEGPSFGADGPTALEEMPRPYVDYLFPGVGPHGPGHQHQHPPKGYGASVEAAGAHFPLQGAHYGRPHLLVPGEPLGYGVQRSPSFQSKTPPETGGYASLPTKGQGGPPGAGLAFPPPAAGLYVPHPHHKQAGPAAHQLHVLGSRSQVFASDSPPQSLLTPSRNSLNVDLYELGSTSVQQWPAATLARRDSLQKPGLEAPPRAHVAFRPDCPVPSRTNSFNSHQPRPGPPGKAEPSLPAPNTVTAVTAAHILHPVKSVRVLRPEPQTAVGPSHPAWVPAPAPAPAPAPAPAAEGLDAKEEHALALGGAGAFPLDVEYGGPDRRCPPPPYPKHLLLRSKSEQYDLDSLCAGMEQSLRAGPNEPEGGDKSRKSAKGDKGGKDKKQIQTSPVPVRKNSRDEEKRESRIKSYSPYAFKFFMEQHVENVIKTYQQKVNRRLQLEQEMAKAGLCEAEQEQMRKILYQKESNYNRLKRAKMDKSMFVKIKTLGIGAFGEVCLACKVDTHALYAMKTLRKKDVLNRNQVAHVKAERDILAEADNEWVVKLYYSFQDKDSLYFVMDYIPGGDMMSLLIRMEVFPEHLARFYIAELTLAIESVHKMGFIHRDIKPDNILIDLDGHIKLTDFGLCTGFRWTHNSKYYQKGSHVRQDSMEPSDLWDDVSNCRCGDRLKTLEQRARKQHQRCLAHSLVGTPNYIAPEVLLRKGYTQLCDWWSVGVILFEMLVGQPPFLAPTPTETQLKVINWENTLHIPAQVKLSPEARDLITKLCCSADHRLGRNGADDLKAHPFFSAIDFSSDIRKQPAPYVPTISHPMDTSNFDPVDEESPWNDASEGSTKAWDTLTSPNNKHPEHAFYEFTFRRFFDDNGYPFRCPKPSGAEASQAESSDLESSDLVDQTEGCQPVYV
Sequence of UniProt P42681 (whole entry, looked up): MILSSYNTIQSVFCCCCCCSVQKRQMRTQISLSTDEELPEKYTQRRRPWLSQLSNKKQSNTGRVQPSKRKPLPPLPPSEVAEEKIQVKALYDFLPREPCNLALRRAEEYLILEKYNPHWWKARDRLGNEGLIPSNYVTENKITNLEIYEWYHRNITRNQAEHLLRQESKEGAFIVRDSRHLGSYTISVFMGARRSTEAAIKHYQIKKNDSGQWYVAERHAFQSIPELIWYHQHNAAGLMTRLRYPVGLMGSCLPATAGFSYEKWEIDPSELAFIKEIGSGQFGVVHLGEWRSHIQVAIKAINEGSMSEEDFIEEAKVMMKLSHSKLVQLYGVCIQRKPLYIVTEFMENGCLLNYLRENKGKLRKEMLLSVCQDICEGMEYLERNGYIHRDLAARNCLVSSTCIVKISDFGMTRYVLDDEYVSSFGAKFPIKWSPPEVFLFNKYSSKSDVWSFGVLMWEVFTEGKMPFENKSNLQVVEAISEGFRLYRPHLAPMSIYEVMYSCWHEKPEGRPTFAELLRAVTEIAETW
Sequence of UniProt Q9NWZ3 (whole entry, looked up): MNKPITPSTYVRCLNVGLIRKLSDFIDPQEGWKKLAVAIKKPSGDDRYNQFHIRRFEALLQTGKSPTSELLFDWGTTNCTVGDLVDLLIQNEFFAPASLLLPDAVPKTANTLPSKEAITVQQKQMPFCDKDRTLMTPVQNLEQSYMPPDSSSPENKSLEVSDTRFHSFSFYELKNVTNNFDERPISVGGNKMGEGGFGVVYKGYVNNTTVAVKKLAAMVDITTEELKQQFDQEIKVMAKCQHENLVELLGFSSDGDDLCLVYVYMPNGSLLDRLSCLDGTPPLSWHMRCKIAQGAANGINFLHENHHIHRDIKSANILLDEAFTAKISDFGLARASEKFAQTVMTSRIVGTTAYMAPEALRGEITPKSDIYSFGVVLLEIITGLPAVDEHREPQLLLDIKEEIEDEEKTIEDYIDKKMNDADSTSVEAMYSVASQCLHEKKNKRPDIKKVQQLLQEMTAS
Sequence of UniProt P11802 (whole entry, looked up): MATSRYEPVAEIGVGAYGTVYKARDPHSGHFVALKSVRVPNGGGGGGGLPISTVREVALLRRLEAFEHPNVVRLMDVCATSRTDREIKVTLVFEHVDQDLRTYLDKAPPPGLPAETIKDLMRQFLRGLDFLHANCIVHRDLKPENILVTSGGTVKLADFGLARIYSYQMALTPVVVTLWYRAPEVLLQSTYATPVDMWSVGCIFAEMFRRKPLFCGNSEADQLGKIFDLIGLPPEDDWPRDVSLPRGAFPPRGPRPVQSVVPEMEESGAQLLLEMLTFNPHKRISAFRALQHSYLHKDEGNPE

Series 1
Compound: Cc1sc(C(=O)NC2COC2)cc1-n1cc(NC(=O)Nc2c(F)cccc2Cl)cn1
Tested at: 10 µM
The remaining activity was 98.3% (Protein kinase C beta type, isoform beta-II (PRKCB, Homo sapiens, UniProt P05771); kinase activity, kinase panel profiling).
It gave 96.5% for remaining activity (PRKG2 (Homo sapiens, UniProt Q13237); enzyme activity; baseline: untreated control).
TNK2 (Homo sapiens, UniProt Q07912); enzyme activity; baseline: untreated control — remaining activity: 98.5%.
For Cyclin-dependent kinase 4, with cyclin D3 (CDK4, Homo sapiens, UniProt P11802); enzyme activity; baseline: untreated control: remaining activity read 94.5%.
The remaining activity was 80.1% (PNCK (Homo sapiens, UniProt Q6P2M8); enzyme activity; baseline: untreated control).
The remaining activity was 79% (BMPR2 (Homo sapiens, UniProt Q13873); enzyme activity; baseline: untreated control).
PKN3 (Homo sapiens, UniProt Q6P5Z2); enzyme activity, inhibitor — remaining activity: 98.6%.
The remaining activity was 81.9% (FLT4 (Homo sapiens, UniProt P35916); enzyme activity; baseline: untreated control).
For MATK (Homo sapiens, UniProt P42679); enzyme activity; baseline: untreated control: remaining activity read 97.3%.
It gave 99.2% for remaining activity (TESK2 (Homo sapiens, UniProt Q96S53); enzyme activity, inhibitor).
For TGFBR2 (Homo sapiens, UniProt P37173); enzyme activity; baseline: untreated control: remaining activity read 86.8%.
The remaining activity was 101% (CLK4 (Homo sapiens, UniProt Q9HAZ1); enzyme activity; baseline: untreated control).

Series 2
Structure (SMILES): Cc1ccc(S(=O)(=O)/C=C/C#N)cc1
Read-out: enzyme activity
Mode: inhibitor
Tested at: 0.5 µM
Baseline: control
PLK2 (Homo sapiens, UniProt Q9NYY3) — remaining activity: 103%.
The remaining activity was 92.2% (MAPK13 (Homo sapiens, UniProt O15264)).
The remaining activity was 96.7% (PRKG1 (Homo sapiens, UniProt Q13976)).
EPHA5 (Homo sapiens, UniProt P54756) — remaining activity: 111%.
The remaining activity was 97.5% (CHEK1 (Homo sapiens, UniProt O14757)).
For CSNK2A1 (Homo sapiens, UniProt P68400): remaining activity read 94.3%.
For PRKCI (Homo sapiens, UniProt P41743): remaining activity read 90.3%.
NEK4 (Homo sapiens, UniProt P51957) — remaining activity: 94.3%.
The remaining activity was 130% (MAP4K2 (Homo sapiens, UniProt Q12851)).
It gave 101% for remaining activity (LYN (Homo sapiens, UniProt P07948)).
It gave 90.5% for remaining activity (MAPK12 (Homo sapiens, UniProt P53778)).
It gave 95.6% for remaining activity (PRKCD (Homo sapiens, UniProt Q05655)).
Cyclin-dependent kinase 9, with cyclin T1 (CDK9, Homo sapiens, UniProt P50750) — remaining activity: 98.2%.
For MAP2K6 (Homo sapiens, UniProt P52564): remaining activity read 98.4%.
For MKNK2 (Homo sapiens, UniProt Q9HBH9): remaining activity read 119%.
For WNK2 (Homo sapiens, UniProt Q9Y3S1): remaining activity read 124%.
The remaining activity was 94.4% (BTK (Homo sapiens, UniProt Q06187)).
It gave 93.7% for remaining activity (AKT3 (Homo sapiens, UniProt Q9Y243)).
MAP3K10 (Homo sapiens, UniProt Q02779) — remaining activity: 105%.
The remaining activity was 95.6% (CSNK1A1 (Homo sapiens, UniProt P48729)).
For KIT (Homo sapiens, UniProt P10721): remaining activity read 102%.
It gave 115% for remaining activity (LRRK2 (Homo sapiens, UniProt Q5S007)).
The remaining activity was 161% (IRAK4 (Homo sapiens, UniProt Q9NWZ3)).

Series 3
Compound: Nc1cnc(N2CCc3cc(S(=O)(=O)Nc4c(F)cc(Cl)cc4F)cc(N4CCCC4=O)c32)nc1
Read-out: cell-free assay
Method: competition with immobilised ligand
Tested at: 1 µM
It gave 100% for remaining binding (SRPK2 (Homo sapiens, UniProt P78362)).
It gave 88% for remaining binding (SRMS (Homo sapiens, UniProt Q9H3Y6)).
It gave 97% for remaining binding (PRKG1 (Homo sapiens, UniProt Q13976)).
AKT1 (Homo sapiens, UniProt P31749) — remaining binding: 100%.
It gave 100% for remaining binding (FGFR4 (Homo sapiens, UniProt P22455)).
It gave 100% for remaining binding (LATS2 (Homo sapiens, UniProt Q9NRM7)).
It gave 100% for remaining binding (Ribosomal protein S6 kinase alpha-2, C-terminal kinase domain (RPS6KA2, Homo sapiens, UniProt Q15349)).
HIPK1 (Homo sapiens, UniProt Q86Z02) — remaining binding: 91%.
For KIT (Homo sapiens, UniProt P10721): remaining binding read 100%.
The remaining binding was 100% (Tyrosine-protein kinase ABL1, phosphorylated (ABL1, Homo sapiens, UniProt P00519, M351T)).
The remaining binding was 100% (DDR1 (Homo sapiens, UniProt Q08345)).
TXK (Homo sapiens, UniProt P42681) — remaining binding: 83%.
It gave 100% for remaining binding (SBK3 (Homo sapiens, UniProt P0C264)).
The remaining binding was 100% (Tyrosine-protein kinase ABL1, non-phosphorylated (ABL1, Homo sapiens, UniProt P00519)).
For KIT (Homo sapiens, UniProt P10721, V559D/V654A): remaining binding read 100%.

Series 4
Structure (SMILES): C=CCc1ccc(O)c(-c2ccc(O)c(CC=C)c2)c1
Read-out: chloride current
ANO1 del476-501/F628A: Anoctamin-1 (ANO1, Homo sapiens, UniProt Q5XXA6, del476-501/F628A)
Sequence of UniProt Q5XXA6 (whole entry, unmodified, looked up): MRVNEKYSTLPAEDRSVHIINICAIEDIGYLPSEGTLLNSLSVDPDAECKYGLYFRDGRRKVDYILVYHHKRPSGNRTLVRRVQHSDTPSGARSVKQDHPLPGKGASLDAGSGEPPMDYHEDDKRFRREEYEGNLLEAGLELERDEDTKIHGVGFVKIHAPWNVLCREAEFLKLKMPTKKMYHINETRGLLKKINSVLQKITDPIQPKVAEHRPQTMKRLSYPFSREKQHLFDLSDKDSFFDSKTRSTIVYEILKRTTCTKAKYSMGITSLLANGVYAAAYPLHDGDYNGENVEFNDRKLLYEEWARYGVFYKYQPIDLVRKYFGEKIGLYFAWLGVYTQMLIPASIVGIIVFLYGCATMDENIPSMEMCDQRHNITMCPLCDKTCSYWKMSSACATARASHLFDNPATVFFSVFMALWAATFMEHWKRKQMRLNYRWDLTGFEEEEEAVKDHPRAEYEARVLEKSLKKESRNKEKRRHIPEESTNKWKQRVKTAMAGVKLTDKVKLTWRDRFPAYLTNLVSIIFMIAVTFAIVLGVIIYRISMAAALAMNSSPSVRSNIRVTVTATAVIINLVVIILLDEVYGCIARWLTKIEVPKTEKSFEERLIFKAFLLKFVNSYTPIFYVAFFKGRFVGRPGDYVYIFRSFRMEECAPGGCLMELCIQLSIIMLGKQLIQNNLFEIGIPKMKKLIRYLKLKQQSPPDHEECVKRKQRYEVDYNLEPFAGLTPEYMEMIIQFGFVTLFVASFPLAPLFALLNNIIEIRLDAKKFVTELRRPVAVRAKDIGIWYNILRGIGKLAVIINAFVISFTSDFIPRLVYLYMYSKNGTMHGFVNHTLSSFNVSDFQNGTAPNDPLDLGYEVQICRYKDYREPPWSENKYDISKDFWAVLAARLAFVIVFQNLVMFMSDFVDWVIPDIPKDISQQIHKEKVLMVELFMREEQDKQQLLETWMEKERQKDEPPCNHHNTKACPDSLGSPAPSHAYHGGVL
It gave 0.53 for normalized current (ANO1 del476-501/F628A; inhibitor, whole-cell voltage clamp; 30 µM, F602A mutant).
For ANO1 del476-501/F628A; whole-cell voltage clamp; 30 µM, concentration-response at 80 mV, together with: 4 µM Ca2+: normalized current read 0.389.
The normalized current was -0.652 (ANO1 del476-501/F628A; whole-cell voltage clamp; 3 µM, concentration-response at -80 mV, together with: 4 µM Ca2+).
It gave 0.648 for normalized current (Anoctamin-1 (ANO1, Homo sapiens, UniProt Q5XXA6, del476-501/E659A); inside-out patch clamp; 10 µM, membrane voltage 80 mV).
It gave 0.684 for normalized current (Anoctamin-1 (ANO1, Homo sapiens, UniProt Q5XXA6, del476-501); whole-cell voltage clamp; 1 µM, wild type, concentration-response at 80 mV, together with: 4 µM Ca2+).
For Anoctamin-1 (ANO1, Homo sapiens, UniProt Q5XXA6, del476-501/E649A/R541A); inside-out patch clamp; 10 µM, membrane voltage 60 mV: normalized current read 0.357.
The normalized current was -0.177 (Anoctamin-1 (ANO1, Homo sapiens, UniProt Q5XXA6, del476-501/E659A/K629A); inside-out patch clamp; 10 µM, membrane voltage -20 mV).
The normalized current was 0.907 (Anoctamin-1 (ANO1, Homo sapiens, UniProt Q5XXA6, del476-501/F803A); inhibitor, whole-cell voltage clamp; 1 µM; baseline: untreated).
It gave -0.111 for normalized current (ANO1 del476-501/F628A; whole-cell voltage clamp; 100 µM, concentration-response at -80 mV, together with: 4 µM Ca2+).
The normalized current was 0.463 (ANO1 del476-501/F628A; whole-cell voltage clamp; 30 µM, concentration-response at 100 mV, together with: 4 µM Ca2+).
It gave 1 for normalized current (Anoctamin-1 (ANO1, Homo sapiens, UniProt Q5XXA6); inside-out patch clamp; 10 µM, membrane voltage 120 mV).
